Published values of several laboratories.
Compare with care: the assays were run in different laboratories. “And” joins repeats or separate records; there may be more than shown. ± marks the error that the study gave.
uncharacterized protein: uncharacterized protein (Anopheles coluzzii, UniProt A0A6E8VQK1)
FLT1: Vascular endothelial growth factor receptor 1 (FLT1, Homo sapiens, UniProt P17948)
UniProt P17948, sequence (whole entry, looked up): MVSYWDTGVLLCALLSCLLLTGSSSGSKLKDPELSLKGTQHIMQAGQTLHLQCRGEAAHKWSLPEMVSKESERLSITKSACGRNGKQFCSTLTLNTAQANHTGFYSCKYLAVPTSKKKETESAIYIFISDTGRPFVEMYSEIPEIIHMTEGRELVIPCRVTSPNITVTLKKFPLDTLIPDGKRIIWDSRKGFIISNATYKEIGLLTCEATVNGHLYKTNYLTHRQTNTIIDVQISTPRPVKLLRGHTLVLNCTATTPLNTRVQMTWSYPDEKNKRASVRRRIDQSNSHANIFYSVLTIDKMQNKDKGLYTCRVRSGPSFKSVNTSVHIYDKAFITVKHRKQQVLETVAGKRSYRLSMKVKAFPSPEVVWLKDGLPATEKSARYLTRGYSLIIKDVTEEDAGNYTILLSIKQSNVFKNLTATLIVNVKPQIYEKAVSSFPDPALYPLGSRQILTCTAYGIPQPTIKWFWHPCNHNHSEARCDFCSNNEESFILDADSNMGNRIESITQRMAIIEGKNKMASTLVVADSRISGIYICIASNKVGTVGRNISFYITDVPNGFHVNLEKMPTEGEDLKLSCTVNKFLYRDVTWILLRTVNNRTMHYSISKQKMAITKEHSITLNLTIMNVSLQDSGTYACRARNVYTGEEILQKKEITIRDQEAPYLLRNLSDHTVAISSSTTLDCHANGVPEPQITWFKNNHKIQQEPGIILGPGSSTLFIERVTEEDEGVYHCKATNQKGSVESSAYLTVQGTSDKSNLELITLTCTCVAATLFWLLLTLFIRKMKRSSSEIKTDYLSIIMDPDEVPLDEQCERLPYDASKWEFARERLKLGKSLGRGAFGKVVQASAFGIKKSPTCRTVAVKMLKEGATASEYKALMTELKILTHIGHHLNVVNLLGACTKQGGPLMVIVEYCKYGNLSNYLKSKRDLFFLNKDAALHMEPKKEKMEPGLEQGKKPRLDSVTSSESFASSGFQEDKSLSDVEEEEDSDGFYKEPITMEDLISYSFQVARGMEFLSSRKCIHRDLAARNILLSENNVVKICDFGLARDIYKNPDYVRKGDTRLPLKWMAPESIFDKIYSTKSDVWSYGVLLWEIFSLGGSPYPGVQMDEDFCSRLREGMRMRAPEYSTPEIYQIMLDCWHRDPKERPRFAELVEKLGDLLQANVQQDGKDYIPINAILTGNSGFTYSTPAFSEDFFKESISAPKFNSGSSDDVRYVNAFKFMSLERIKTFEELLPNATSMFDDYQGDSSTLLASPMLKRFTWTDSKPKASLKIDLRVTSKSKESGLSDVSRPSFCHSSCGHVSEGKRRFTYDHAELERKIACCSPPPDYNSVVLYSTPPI
UDP-3-O-acyl-N-acetylglucosamine deacetylase C40S: UDP-3-O-acyl-N-acetylglucosamine deacetylase (Pseudomonas aeruginosa, UniProt P47205, C40S)
UniProt P49286, sequence (whole entry, looked up): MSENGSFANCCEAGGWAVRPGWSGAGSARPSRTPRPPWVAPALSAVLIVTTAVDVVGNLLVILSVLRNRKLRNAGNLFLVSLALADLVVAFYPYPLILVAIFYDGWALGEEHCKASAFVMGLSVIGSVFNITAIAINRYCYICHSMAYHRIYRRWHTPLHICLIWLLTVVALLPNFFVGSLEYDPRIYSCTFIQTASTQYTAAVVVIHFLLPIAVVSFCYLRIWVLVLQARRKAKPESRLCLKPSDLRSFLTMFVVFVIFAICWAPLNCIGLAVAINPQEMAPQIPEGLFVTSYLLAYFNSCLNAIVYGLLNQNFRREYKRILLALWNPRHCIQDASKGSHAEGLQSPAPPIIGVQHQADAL
UniProt Q96LB1, sequence (whole entry, looked up): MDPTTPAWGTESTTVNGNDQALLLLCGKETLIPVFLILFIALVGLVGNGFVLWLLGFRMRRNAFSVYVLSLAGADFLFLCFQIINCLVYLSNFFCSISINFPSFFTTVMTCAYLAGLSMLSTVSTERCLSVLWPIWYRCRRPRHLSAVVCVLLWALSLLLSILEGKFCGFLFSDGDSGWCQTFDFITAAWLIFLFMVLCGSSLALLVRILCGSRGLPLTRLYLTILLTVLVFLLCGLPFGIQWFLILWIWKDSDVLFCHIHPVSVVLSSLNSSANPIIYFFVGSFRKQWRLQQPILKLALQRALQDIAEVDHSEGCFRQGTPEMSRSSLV
UniProt Q9BY21, sequence (whole entry, looked up): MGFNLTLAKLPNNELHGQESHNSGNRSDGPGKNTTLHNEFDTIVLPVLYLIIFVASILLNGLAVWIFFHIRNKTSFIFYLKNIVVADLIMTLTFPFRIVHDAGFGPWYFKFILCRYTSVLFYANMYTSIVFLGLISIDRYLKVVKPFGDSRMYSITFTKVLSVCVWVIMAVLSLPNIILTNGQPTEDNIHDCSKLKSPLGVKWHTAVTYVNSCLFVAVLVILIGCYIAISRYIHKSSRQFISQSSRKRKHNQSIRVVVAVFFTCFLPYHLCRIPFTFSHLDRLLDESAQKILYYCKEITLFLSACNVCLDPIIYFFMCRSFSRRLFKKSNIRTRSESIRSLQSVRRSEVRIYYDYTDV
UniProt P02716, sequence (whole entry, looked up): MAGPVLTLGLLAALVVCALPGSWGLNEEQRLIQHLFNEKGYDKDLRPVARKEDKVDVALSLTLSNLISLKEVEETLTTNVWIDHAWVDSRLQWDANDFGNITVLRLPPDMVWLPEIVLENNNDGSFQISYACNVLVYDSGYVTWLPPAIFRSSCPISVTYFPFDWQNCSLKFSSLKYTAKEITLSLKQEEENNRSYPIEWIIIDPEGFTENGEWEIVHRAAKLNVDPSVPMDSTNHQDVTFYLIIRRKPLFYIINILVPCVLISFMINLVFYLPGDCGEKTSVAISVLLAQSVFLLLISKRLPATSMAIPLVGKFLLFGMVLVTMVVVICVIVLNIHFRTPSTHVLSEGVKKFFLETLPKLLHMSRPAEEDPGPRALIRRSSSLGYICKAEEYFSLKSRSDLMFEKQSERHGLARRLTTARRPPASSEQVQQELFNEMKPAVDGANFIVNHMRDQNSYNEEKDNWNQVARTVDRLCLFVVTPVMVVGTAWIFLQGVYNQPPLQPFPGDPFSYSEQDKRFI
UniProt P62136, sequence (whole entry, unmodified, looked up): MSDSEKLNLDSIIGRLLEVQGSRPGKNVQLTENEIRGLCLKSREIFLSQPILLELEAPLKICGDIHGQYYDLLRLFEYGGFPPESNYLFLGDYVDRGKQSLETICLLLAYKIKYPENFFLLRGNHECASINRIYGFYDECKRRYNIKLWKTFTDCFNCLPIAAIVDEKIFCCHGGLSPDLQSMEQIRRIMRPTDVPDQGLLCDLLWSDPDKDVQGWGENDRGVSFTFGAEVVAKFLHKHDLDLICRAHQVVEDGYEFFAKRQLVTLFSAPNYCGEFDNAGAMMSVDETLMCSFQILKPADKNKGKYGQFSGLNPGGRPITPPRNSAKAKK
UniProt Q9UJS0, sequence (whole entry, unmodified, looked up): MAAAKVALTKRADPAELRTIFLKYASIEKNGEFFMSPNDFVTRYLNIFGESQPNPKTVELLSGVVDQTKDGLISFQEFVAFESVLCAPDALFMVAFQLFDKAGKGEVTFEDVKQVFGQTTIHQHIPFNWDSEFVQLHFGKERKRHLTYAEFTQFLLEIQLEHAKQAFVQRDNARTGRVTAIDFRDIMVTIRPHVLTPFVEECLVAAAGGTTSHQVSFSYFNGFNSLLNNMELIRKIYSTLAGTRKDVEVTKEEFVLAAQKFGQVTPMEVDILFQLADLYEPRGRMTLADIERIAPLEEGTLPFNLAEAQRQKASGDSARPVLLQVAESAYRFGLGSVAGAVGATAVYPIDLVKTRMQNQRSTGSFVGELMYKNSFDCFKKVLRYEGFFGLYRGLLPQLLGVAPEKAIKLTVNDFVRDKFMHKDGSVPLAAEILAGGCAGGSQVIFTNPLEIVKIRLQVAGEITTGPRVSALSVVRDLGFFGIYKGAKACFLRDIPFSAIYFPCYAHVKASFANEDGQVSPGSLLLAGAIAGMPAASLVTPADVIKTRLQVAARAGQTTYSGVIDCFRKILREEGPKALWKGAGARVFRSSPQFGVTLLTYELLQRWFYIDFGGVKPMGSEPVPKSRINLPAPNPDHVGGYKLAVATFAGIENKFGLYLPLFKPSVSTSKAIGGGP
UniProt P20782, sequence (whole entry, looked up): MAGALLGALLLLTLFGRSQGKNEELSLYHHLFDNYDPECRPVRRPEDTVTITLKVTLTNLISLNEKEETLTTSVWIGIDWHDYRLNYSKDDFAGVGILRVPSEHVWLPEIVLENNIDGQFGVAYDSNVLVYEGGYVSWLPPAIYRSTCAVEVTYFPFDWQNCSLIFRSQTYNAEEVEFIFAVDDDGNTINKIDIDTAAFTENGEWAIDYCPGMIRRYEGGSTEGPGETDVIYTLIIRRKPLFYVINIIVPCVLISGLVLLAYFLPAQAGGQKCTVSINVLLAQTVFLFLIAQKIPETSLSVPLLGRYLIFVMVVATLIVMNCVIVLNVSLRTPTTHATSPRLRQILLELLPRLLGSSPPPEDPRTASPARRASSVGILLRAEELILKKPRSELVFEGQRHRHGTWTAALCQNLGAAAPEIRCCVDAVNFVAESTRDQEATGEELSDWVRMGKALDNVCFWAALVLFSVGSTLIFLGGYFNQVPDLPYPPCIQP
UniProt C6WFL3, sequence (whole entry, looked up): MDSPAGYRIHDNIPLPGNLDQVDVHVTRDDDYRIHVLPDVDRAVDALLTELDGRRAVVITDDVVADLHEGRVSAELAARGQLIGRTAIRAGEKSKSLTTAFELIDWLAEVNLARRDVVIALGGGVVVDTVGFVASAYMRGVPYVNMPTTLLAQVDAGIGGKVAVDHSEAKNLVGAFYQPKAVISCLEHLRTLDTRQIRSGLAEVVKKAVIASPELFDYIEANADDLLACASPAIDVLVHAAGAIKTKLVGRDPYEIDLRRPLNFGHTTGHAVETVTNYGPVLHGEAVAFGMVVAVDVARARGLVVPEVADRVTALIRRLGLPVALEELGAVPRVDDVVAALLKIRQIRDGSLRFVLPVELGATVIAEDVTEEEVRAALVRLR

For `O=C(c1ccc(Cl)cc1)N1CCN2C(=O)N(OC(=O)N3CCOc4ccccc43)C(=O)C2C1` (centres unmarked), “mean protein ratio” read 1 (Protein phosphatase methylesterase 1 (Homo sapiens, UniProt Q9Y570); MS-based ABPP; SW-620 conditioned medium; 10 µM, 1 h, 37 °C; relative to: compound over DMSO, lower = more inhibition).
For `CNC(=O)Oc1cccc2c1OC(C)(C)O2`, the remaining activity was 47.2% (uncharacterized protein; enzyme activity, inhibitor; Sf9 cell homogenate; 9.302 µM, 0.1667 h, together with: α-naphthyl acetate substrate; relative to: no inhibitor).
The inhibition of `COc1ccc(N2C(=O)N(c3c(C)cccc3Cl)Cc3cnc(Nc4ccc(C5CCN(C)CC5)cc4OC)nc32)nc1` is reported as -0.47% (Ribosomal protein S6 kinase alpha-3 (RPS6KA3, Homo sapiens, UniProt P51812); kinase activity, inhibitor; 0.5 µM, kinase RSK2).
The resting-state kon of `c1cncc([C@@H]2CCCCN2)c1` is reported as 3.19e+07 M⁻¹ s⁻¹ (Chrnd/Chrna1/Chrne (Mus musculus, UniProt P02716+P04756+P20782); single-channel kinetics; wild-type receptor).
The kcat of `O=C(Cc1cccs1)N[C@@H]1C(=O)N2C(C(=O)O)=C(/C=C/c3ccc([N+](=O)[O-])cc3[N+](=O)[O-])CS[C@H]12` is reported as 7 ± 0.2 s⁻¹ (Metallo-beta-lactamase type 2 (blaNDM-1, Klebsiella pneumoniae, UniProt C7C422, C208D); substrate, steady-state kinetics).
The remaining binding of `[2H]c1c([2H])c([C@]2([2H])CCCN2C(=O)C(C)(C)Oc2ccc3cn[nH]c3c2)c([2H])c([2H])c1C([2H])([2H])[2H]` is reported as 88% (FLT1; KINOMEscan; 1 µM; relative to: DMSO control).
`O=C(Nc1cccnn1)N1CCC(=Cc2cccc(Oc3ccc(C(F)(F)F)cn3)c2)CC1` gave an inhibition of 1% (ryanodine receptor RyR3, rat; binding; 50 µM, together with: [3H]ryanodine).
`CC[C@H](C)[C@H](NC(=O)CNC(=O)[C@@H](N)CCCCN)C(=O)N[C@@H](CC(C)C)C(=O)N[C@@H](CCCCN)C(=O)N[C@@H](CCCNC(=N)N)C(=O)N[C@@H](CCC(=O)O)C(=O)N[C@@H](CCCCN)C(=O)N[C@@H](CCCNC(=N)N)C(=O)N[C@@H](CC(C)C)C(=O)N[C@@H](CCCNC(=N)N)C(=O)N[C@@H](CCCNC(=N)N)C(=O)N[C@@H](CCCCN)C(=O)N[C@@H](CC(N)=O)C(=O)N[C@H](C(=O)N[C@@H](Cc1c[nH]cn1)C(=O)N[C@@H](Cc1c[nH]c2ccccc12)C(=O)N1CCC[C@H]1C(=O)N[C@@H](CCC(=O)O)C(=O)N[C@@H](CCC(=O)O)C(=O)NCC(=O)N[C@@H](CCCCN)C(=O)N[C@@H](CC(C)C)C(=O)N[C@@H](CCCNC(=N)N)C(=O)N[C@@H](CCC(=O)O)C(=O)N[C@@H](Cc1ccc(O)cc1)C(=O)N[C@@H](Cc1ccccc1)C(=O)N[C@@H](Cc1ccc(O)cc1)C(=O)N[C@@H](Cc1ccccc1)C(=O)N[C@@H](CCC(=O)O)C(=O)N[C@@H](CC(C)C)C(=O)N[C@@H](CC(=O)O)C(=O)N[C@@H](CCC(=O)O)C(=O)N[C@@H](C)C(=O)N[C@@H](CCC(=O)O)C(=O)N[C@@H](CCCNC(=N)N)C(=O)N[C@H](C(=O)N[C@@H](CC(N)=O)C(=O)N[C@H](C(=O)O)C(C)C)C(C)C)C(C)C`: “entropic term −TΔS” -11 ± 1.8 kcal/mol (Serine/threonine-protein phosphatase PP1-alpha catalytic subunit (PPP1CA, Homo sapiens, UniProt P62136); binding, isothermal titration calorimetry; 25 °C, PP1α residues 7-330).
`C=CCn1cc(-c2ccc(-c3ccn(CCC(C)(C(=O)NO)S(C)(=O)=O)c(=O)c3)cc2)nn1` (centres unmarked) has a residence time of 82.8 ± 26 min (UDP-3-O-acyl-N-acetylglucosamine deacetylase (Pseudomonas aeruginosa, UniProt P47205); fluorescence; 37 °C).
With `Cc1nn(C)cc1-c1nc2c(N3CCN(Cc4ccc(Cl)cc4)CC3)c(Cl)cnc2[nH]1` the remaining binding was 100% (Serine/threonine-protein kinase Nek3 (NEK3, Homo sapiens, UniProt P51956); KINOMEscan; 1 µM; relative to: DMSO control).
Under “relative binding affinity”, `CCCCCCCCCCCCCC[N+](C)(C)C` is recorded as < 1% (Sodium channel protein type 4 alpha, BTX-activated (Oryctolagus cuniculus, UniProt G1SLL9); concentration not given, external application; relative to: internal application).
With `O=C(Nc1cnccc1Cl)N1CCN(Cc2ccc3c(c2)OC(F)(F)O3)CC1` the inhibition was 7% and 2% (Melatonin receptor type 1B (MTNR1B, Homo sapiens, UniProt P49286); radioligand binding; concentration not given).
`CN1CCN(c2cc(-c3ccncc3)c(-c3ccc4ccccc4c3)nn2)CC1` gave an activation of 5.1% (Mas-related G-protein coupled receptor member X2 (MRGPRX2, Homo sapiens, UniProt Q96LB1); agonist, FLIPR; 12.5 µM).
The Ki ratio of `O=C(O)COP(=O)(O)O` is reported as 13 (TPI1 (Saccharomyces cerevisiae, UniProt P00942, S211G/Y208T); enzyme activity, competitive inhibitor, GPDH/NADH-coupled; pH 7.5, 25 °C, ionic strength 0.1 NaCl, together with: glyceraldehyde 3-phosphate substrate; relative to: mutant over wild type).
`CC1(C)[C@H](C(=O)O[C@H](C#N)c2cccc(Oc3ccccc3)c2)[C@@H]1C=C(Br)Br` gave a remaining activity of 98.5% (uncharacterized protein; enzyme activity, inhibitor; Sf9 cell homogenate; 0.0004546 µM, 0.1667 h, together with: α-naphthyl acetate substrate; relative to: no inhibitor).
`C[C@H]1CN(c2n[nH]c3nc(N[C@H]4CC[C@H](NS(=O)(=O)CCC(F)(F)F)CC4)ncc23)CCO1` gave a relative abundance of 1.1 (Hsp90 co-chaperone Cdc37 (CDC37, Homo sapiens, UniProt Q16543); inhibitor, Kinobeads competition profiling; 20 µM; relative to: vehicle).
`CC(C)[C@@H]1NC(=O)[C@H](C)OC(=O)[C@@H](C(C)C)NC(=O)[C@@H](C(C)C)OC(=O)[C@H](C(C)C)NC(=O)[C@H](C)OC(=O)[C@@H](C(C)C)NC(=O)[C@@H](C(C)C)OC(=O)[C@H](C(C)C)NC(=O)[C@H](C)OC(=O)[C@@H](C(C)C)NC(=O)[C@@H](C(C)C)OC1=O` has a L-OPA1 level of 51.9 ± 9.9% (Metalloendopeptidase OMA1, mitochondrial (OMA1, Homo sapiens, UniProt Q96E52); Western blot; HEK293T, OMA1 siRNA knockdown; concentration not given).
`Nc1ncnc2c1ncn2[C@H]1C[C@H](O)[C@@H](COP(=O)(O)OP(=O)(O)OP(=O)(O)O)O1` has a kcat of 0.115 ± 0.00483 s⁻¹ (Gag-Pol polyprotein, reverse transcriptase (gag-pol, Human immunodeficiency virus type 1 group M subtype B, UniProt P04585); single nucleotide extension; matched T:A primer-template).
`O=C1c2ccccc2C(=O)C1C(=O)C(c1ccccc1)c1ccccc1` — result for activity: “inactive” (Nuclear receptor subfamily 1 group I member 3 (Homo sapiens, UniProt Q14994); cells; concentration not given).
For `Nc1nc2c(ncn2[C@@H]2O[C@H](COP(=O)(O)OP(=O)(O)O)[C@@H](O)[C@H]2O)c(=O)[nH]1`, “fluorescence ratio F+/F-” read 0.97 (matB (Rhodopseudomonas palustris, UniProt Q6ND88, C106A/K488A/Q457C/R286C); binding, intrinsic fluorescence; 250 µM, 1 µM matB, 10 mM MgCl2).
The ΔTm of `COC(CNC(=O)c1ccccc1OCC(=O)O)[CH2][Hg][OH]` (centres unmarked) is reported as < 0 °C (Electrogenic aspartate/glutamate antiporter SLC25A13, mitochondrial (SLC25A13, Homo sapiens, UniProt Q9UJS0); thermal stability, CPM thermal shift; 0.1 mM, DDM-solubilised protein).
`CN(C(=O)n1cnc(-c2ccc[n+]([O-])c2)c1)C1CCCCC1` gave an inhibition of 5% (Leukotriene B4 receptor 1 (LTB4R, Homo sapiens, UniProt Q15722); radioligand binding; 10 µM, together with: [3H]LTB4).
With `O=P(O)(O)OC[C@H]1C[C@@](O)(CO)[C@@H](O)[C@H](O)[C@@H]1O` the apparent Vmax was 1.8 ± 0.3 µM/min (2-epi-valiolone synthase (Actinosynnema mirum, UniProt C6WFL3); phosphate release; 150 µM).
The kcat of `N[C@@H](Cc1ccc(O)c(I)c1)C(=O)O` is reported as < 0.03 s⁻¹ (Iodotyrosine deiodinase (Haliscomenobacter hydrossis, UniProt F4KU78, R38E); deiodination; pH 7.4, 25 °C, together with: dithionite).
`Nc1ncnc2c1ncn2[C@@H]1O[C@H](COP(=O)(O)OP(=O)(O)O)[C@@H](O)[C@H]1O`: “binding enthalpy (ΔH)” -1.6 kcal/mol (Cell cycle histidine kinase CckA, cytoplasmic region (Caulobacter vibrioides, UniProt Q9X688); isothermal titration calorimetry; Caulobacter crescentus; concentration not given, 25 °C, together with: without c-di-GMP).
`O=C1C(Cl)=C(Cl)C(=O)C(Cl)=C1Cl` gave a remaining activity of 29.5% (DNA cross-link repair 1A protein (DCLRE1A, Homo sapiens, UniProt Q6PJP8); exonuclease activity, inhibitor, fluorescence HTS; 10 µM, 80 min, together with: 8 nM 5P-FQ substrate).
`O=C(/C=C\c1ccccc1)O[C@H]1[C@@H]2C=CO[C@@H](O[C@@H]3O[C@H](CO)[C@@H](O)[C@H](O)[C@H]3O)[C@@H]2[C@@]2(CO)O[C@@H]12` gave an activity decrease of 27% (Amine oxidase [flavin-containing] B (Maob, Rattus norvegicus, UniProt P19643); enzyme activity; PC-12; 100 µM, together with: 6-OHDA 300 µM; relative to: 6-OHDA model cells).
Under “radioligand binding inhibition”, `CC(C)C[C@H]1C(=O)N2CCC[C@H]2[C@]2(O)O[C@](NC(=O)[C@@H]3C=C4c5cccc6[nH]c(Br)c(c56)C[C@H]4[N+](C)(C)C3)(C(C)C)C(=O)N12.[I-]` is recorded as “no effect” (Mu-type opioid receptor (Oprm1, Rattus norvegicus, UniProt P33535); 100 nM, together with: [3H]DAMGO).
`CC(C)C[C@H](NC(=O)[C@H](Cc1ccccc1)NC(=O)[C@@H]1CCCN1C(=O)[C@H](CCCNC(=N)N)NC(=O)[C@H](CCC(=O)O)NC(=O)[C@@H]1CCCN1C(=O)[C@H](CO)NC(=O)[C@@H](N)CCC(=O)O)C(=O)O` gave a kon of 157 M⁻¹ s⁻¹ (Epithelial sodium channel subunit alpha (Homo sapiens, UniProt P37088); binding, bio-layer interferometry).
`COc1cc(Nc2ncc(F)c(Nc3ccc4c(n3)NC(=O)C(C)(C)O4)n2)cc(OC)c1OC` has an inhibition of 100% (FLT1; KINOMEscan; 10 µM).
`COc1cc(N)c(Cl)cc1C(=O)NC1CN2CCC1CC2` (centres unmarked) — result for “log2 fold change”: -0.024 (G-protein coupled receptor 87 (GPR87, Homo sapiens, UniProt Q9BY21); β-arrestin recruitment, TANGO luminescence, item: GPR87; concentration not given; relative to: basal luminescence).
For `C[C@@H](O)[C@H](NC(=O)c1ccc(C#Cc2ccccc2)cc1)C(=O)NO`, “ΔS of binding” read 0.0715 kJ/(mol·K) (UDP-3-O-acyl-N-acetylglucosamine deacetylase C40S; ITC; concentration not given, 298 K).
For `CN(C)CCNc1nc2cc(O)ccc2c2c1C(=O)c1ccccc1-2.Cl.Cl`, the FLuc luminescence was 0.413 (Protein transport protein Sec61 subunit alpha isoform 1 (Homo sapiens, UniProt P61619); reporter gene, Dual-Glo luciferase; HEK293 with CD4 signal peptide-FLuc; unit not given; relative to: mock).
Under “ΔS of binding”, `NC[C@H](NC(=O)c1ccc(C#Cc2ccccc2)cc1)C(=O)NO` is recorded as 0.128 kJ/(mol·K) (UDP-3-O-acyl-N-acetylglucosamine deacetylase C40S; ITC; concentration not given, 298 K).
Under binding, `C[N+](C)(C)CCOS(=O)(=O)[O-]` is recorded as “no binding” (SAR11_0797 protein (Candidatus Pelagibacter ubique); isothermal titration calorimetry; concentration not given).
